Assay results collected from several papers.
Every numbered part comes from another study and shows a few of its results, in no order. Changes are numbered by the printed parent chain.

Study 1 — target: CCND2, cyclin fold, Cln2 fusion (human); method: yeast growth competition, sequencing; medium: yeast; setting: weak parent motif; relative to: not given; reading: higher = stronger binding
Starting sequence: GMNC docking peptide (human); KNAKRNLSSEFAN
Change | normalised enrichment score
S8V | 0.172
F11V | 0.0876
S8A | -0.0312
L7E | 0.0367
L7T | 0.132
L7Q | -0.0117
L7A | 0.336
N6M | -0.215
N2P | 0.656
S8F | 0.00267
A3M | 0.524
N2R | 0.815
A12K | 0.162
A12Q | -0.323
L7I | 0.252
E10F | -0.177
K4N | -0.0432
R5D | -0.151
A3I | 0.355
K4V | 0.371
L7V | -0.00777

Study 2 — method: RNA Bind-n-Seq; form: RNA; medium: in vitro; concentration: 365 nM; relative to: no-protein control; reading: higher = stronger binding
Target: RNA binding protein fox-1 homolog 2, RRM domain, GST-SBP tag (RBFOX2, Homo sapiens, UniProt O43251-10, residues 100-194)
Setting: natural RNA segment, single round, ends assumed
Shared flanks, not repeated: GGGAGUUCUACAGUCCGACGAUC … UGGAAUUCUCGGGUGCCAA
Residues (chain): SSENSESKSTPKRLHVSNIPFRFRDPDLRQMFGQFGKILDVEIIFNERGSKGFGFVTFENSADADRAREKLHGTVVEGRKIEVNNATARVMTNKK
Oligonucleotide | RBNS enrichment (R)
UGCUUGGAAAGAUGGCUCUCAGCAAAAUCUGUUUGUCUUACACGUCUCUCAGGGAAAAAACAUGCAGUCUUCAAGCAUCUUCCAUGUACAUUCUAUCUGGGUGAACACCU | 0.914
ACUCUGUGUCUCCUGCCUUGUUGUUCGGUAAUAAGACUGUAGCGUAUGUAAAGGAGGGAAGGGAAGGCUUAAAAAGUCAUGUUCUUGCACCCUUUUUAAAUCACAGAAAU | 0.81
UCUCGUUCAAGGUCCAGAUCAAGUUCCAGAGAUAACCCUGACCUCGACGUUCUUUGCACACUAUAACAGAACACUUUCCUACUUGCUUAGGCAGUUACUCUUCCGAGUUU | 0.501
AAAGUGACUUCUUACAGCUAGUGCAUUGUGCUCUUUCCAAGUUCAGCAGCAGUUCUAUCAGUGGUGCCACUGAAACUGGGUAUAUUUAUGAUUUCUUUCAGCGUUAAAAA | 0.381
ACCACGCCCAGCUAAUAUUUUGUAUUUUCAGUAGGGACGGGGUUACACCAUGUUGGCCAGGCUGGUCUCGAACUCCUGACCUCAAGUGAUCCACCCGCCUCAGUCUCCCA | 0.288
AAAAUCUCAAGUGAAAAAGAAUUAACCUGUUAAAUCAGAAUGGUUCUCUUUGACCCGUUCUGGUCUAUUGUGUAAAUAUUUAUUUAGACUAUUUUGAUAAUACAUAUUAU | 0.343
AGACUGACAUGAUAAAAUAUCAUGUUCCUAAUCUGUUGUCUCAGAUAAGUGACCAAGACGGGACUUUCCACAUUUUAGUCUACAUUCUAAUCUUAAAGGAAUAAAGCACU | 0.434
UGUCUGUUAGUAGUGCUGUAGAUUAAGUCUUUCCAAAGCACCUAGGCAGUGCACCUAUUCUGUAGUUGCAGCUAUUGCCUGAAUGUACCUUAGCUGACAAAUUAUUGAUA | 0.658
AGCACGCACAGACAUACAUGUCGAGAGCGGACUUUAGGCUUUCAUGUGUUAAACCGCUUGAGUUACACCUUGUGACCCUUCUCCCAUAACAUGGUGUGAGGACGGACUGG | 4.04
AAAAUUGCUUUUGCCUUUUUCAUGAAUGUUAAGCAGCAGCAUUGUGAGAUCGAUCUGUCCUGGCAGUUAACACGAUGUGCAACAGUGUGUUAGCAUGGAACAGAACGCUU | 0.38
AUGAGACGGCUUGUGUGUGAAAAGAUUUUGGAAAUUACACAGAUGUGGGCUUGUUAUUGGGAUGAAGACUGCUGGAAGGGACUCCUUGCUGUUUAUCUACUGCUUUGAGC | 1.48
GAGCUCUUCUGUCCAAAGAUGGCUGCGGGCUAAGCAAGGUCCUGCCCUGGGUGGAUACUUGAACCAGAGAUCCCGACCCUGCUGCUCCAUCUCAGGAGGCAGCCUUCCUG | 0.286

Study 3 — method: RNA Bind-n-Seq; form: RNA; medium: in vitro; concentration: not given; relative to: input RNA pool; reading: higher = stronger binding
Target: RING finger protein unkempt homolog, zinc fingers 1-6, GST-SBP tag (UNK, Homo sapiens, UniProt Q9C0B0, residues 30-357)
Sequence of UniProt Q9C0B0 (30-357, looked up): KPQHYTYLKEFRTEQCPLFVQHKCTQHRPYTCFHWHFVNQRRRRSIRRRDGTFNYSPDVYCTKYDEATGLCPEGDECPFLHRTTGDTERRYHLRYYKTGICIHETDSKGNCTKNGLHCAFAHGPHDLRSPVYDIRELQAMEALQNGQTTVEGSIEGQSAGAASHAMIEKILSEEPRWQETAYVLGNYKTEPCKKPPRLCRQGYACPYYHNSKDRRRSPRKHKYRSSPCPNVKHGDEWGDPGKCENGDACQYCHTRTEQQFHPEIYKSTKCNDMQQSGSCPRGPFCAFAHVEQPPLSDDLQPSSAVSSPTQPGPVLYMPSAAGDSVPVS
Setting: RNA with constant flanks, human and mouse sites, ends assumed
Shared flanks, not repeated: GGGAGUUCUACAGUCCGACGAUC … CAACAGAGGAUUGAGCAUCA
Oligonucleotide | bound/input enrichment [ratio]
GAUGAGUUGCUCCUGAUUGGUCAUUGGGUUUGGGUGAGGCCUGGAGGCUUCAGAGGUGAAUUUAUGCUUGGGAAGCCUGAUCCCAAACCUGAAGGGAAGGGACUUGGAUCUCCUUAUAUU | 0.313
AAUGAAGCCUAUUUUGAUGUUGUUGAAGAAAUAGACGCAAUUAUAGAUAAAUCAGGAUCUACAGUCUUUGCAGAAAUUCAGGGGGUCAUUGAUGCUUGCAUUAAACUAUCUGGAAUGCCU | 0.472
GAUGACAUGUCUGAGCCUGAAUUCAAAAGAGGAGGGACAAGGGCAACCGCGGGGCCCCGAUUAGGUUGGUCUCGAGACUUGGGACAGUCUAACAGUGACUUGGAUAUGCCAUUUGCCAAG | 0.165
UCAUUGCCCUCAACAUGAAGACUGCCAUAUUCCAAGUCACAUUAUUUUACCAAUGGAAUUAUAGAAUUAACAGUAUUUUAAAUUACGUUUAUAACACUGCAGAGACCUUAAGUGCUAAAC | 1.47
AUUUGCUGUCUUUAGAGGCCACGGCUUCAUUUCUAUGCGUAAAAAGCUCAUUUAGCAAUGUAGUUAUUUCAGUAUUUAUUUCUAUUAUGGAAUCCCUGGGGUUCGGAAUGUAACUUUGUA | 3.37
GCUCCCACUGCAGCCUCGAGUGCCCCUGUCCCACCUGGCUCCCCCUGCUGGUGUCUAGUGUUUUUUUCCCUCUCCUGUCCUUGUGUUGAAGGCAGUAAACUAAGGGUGUCAAGCCCCAUU | 1.45
GAAUGGCUGGAAAGCCACCAGGAUGCGGACAUUGAAGACUUUAAAGCCAAAAAGAAGGAACUAGAAGAAAUUGUUCAGCCAAUUAUCAGCAAACUCUAUGGAAGUGGAGGCCCUCCCCCA | 0.427
AUUUUAGCUCUGAUCUCACUCUUCAGUAUUCCUGUUAUAUAUGAACGGCAUCAGGCGCAGAUAGAUCAUUAUCUAGGACUUGCAAACAAGAGCGUUAAGGAUGCCAUGGCCAAAAUCCAA | 0.4
UUGGGUGUUCCAGCUCCAGGACAUUGUGCUCAGGAGUUUGAAAAAGGCUGCUAUACUCAGUCGGGUUACUGGGUUUCUUGUUCCUCUUUGUGCCUGCCUGCCUUGCCCAAGCUCACUCUG | 0.191
GACCUCAUUGUGGCAGAUAGCAGCCGCAAGGAAAUUCUCCAUUUUCCCAAGGGCGGUGGCUACAGCGUCCUUAUUCGAGAGGGCCUUACCUGUCCAGUGGGCAUCGCCCUCACACCCAAG | 0.123
GCUGAAGGAAAUGACCAACCACCAGAAGAAACGAGCAGCUGAAAUGAUGGCAUCAUUAUUAAAAGACCUUGCAGAAAUAGGAAUUGCUGUGGGGAAUAACGAUGUGAAGCAACCAGAAGG | 0.268

Study 4 — method: protein binding microarray; form: double-stranded DNA, one strand shown; medium: in vitro; concentration: not given; relative to: not given; reading: higher = stronger binding
Target: Histone acetyltransferase KAT6A, both winged helices, GST fusion (KAT6A, Homo sapiens, UniProt Q92794, residues 1-181)
Setting: 8-mer, flanks averaged, mean of 2 arrays, mostly near background
Residues (chain): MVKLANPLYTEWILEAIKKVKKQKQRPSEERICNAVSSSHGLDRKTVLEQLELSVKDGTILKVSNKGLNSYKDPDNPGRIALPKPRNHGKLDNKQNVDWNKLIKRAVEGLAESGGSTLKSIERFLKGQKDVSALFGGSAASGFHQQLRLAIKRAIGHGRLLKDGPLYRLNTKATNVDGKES
Oligonucleotide | E-score
CGGCGGAA | 0.355
CGCTTTAG | 0.126
AAGTCACC | -0.0314
CATATGGA | -0.118
CAAGGTGG | -0.125
CGAAGAAG | -0.0877
CACTGGTA | -0.193
AAAGATAC | -0.13
GAACAGCA | -0.0766
AGCTTATC | -0.0107
GTTCCCAA | -0.0685
GTCAACCA | -0.137
AACGCACC | 0.137
ACCAAGAA | -0.158
AGAATCCA | -0.186
CCTCTACA | -0.169

Study 5 — method: universal PBM; form: double-stranded DNA, one strand shown; medium: in vitro; concentration: 600 nM; reading: higher = stronger binding
Target: Sal-like protein 4, full length isoform A (SALL4, Homo sapiens, UniProt Q9UJQ4, residues 1-1053)
Sequence of UniProt Q9UJQ4 (whole entry, looked up): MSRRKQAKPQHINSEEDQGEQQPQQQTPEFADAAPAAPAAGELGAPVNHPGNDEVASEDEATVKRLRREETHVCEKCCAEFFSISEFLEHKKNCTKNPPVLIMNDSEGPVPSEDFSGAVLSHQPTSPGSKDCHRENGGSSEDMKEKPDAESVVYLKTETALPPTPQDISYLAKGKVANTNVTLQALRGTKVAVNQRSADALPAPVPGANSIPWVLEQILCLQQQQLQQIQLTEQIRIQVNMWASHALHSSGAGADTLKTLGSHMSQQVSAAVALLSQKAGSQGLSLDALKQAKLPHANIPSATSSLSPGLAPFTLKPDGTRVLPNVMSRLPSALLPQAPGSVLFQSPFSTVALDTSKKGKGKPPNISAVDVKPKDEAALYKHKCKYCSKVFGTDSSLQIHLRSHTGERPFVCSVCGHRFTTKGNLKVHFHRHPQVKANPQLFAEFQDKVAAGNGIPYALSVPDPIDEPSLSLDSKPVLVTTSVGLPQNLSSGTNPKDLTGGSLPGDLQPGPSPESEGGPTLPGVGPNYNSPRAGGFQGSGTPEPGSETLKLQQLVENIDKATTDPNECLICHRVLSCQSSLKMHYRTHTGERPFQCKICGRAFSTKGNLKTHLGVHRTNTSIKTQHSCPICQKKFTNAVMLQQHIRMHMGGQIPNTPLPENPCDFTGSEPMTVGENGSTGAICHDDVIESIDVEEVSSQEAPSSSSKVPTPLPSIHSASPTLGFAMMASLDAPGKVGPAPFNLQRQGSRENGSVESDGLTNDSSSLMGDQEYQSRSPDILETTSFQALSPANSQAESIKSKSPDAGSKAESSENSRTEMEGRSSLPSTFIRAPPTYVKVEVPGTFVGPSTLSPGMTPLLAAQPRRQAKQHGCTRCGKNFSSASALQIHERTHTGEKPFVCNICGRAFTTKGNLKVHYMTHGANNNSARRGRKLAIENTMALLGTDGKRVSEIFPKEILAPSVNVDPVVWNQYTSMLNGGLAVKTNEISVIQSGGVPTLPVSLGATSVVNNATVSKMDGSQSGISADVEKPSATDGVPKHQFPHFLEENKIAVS
Setting: 8-mer, flanks averaged, mean of replicates
Oligonucleotide | E-score
GTAAACCA | 0.0346
AGCGGGAG | -0.19
GGTTCGCA | -0.173
CATCGATA | 0.213
CCAGGGAA | -0.287
CTAAGACA | 0.107
AATACGTC | 0.0277
GATTACCA | -0.122
CGTTGCGA | -0.0993
CGCAGTCC | -0.201
CCGGCAAC | -0.25
AATACCCC | -0.216
ATTAGCGG | -0.0909
CACTTGAG | -0.138
CAGCGCCC | -0.279
ATTCCAGA | 0.14
AATGCGAG | 0.101
ATAACATC | 0.27
GATTGCGC | 0.0202
GCGCCGCA | -0.28
GTTTGGTA | 0.201
CGTTTTAG | 0.0871
AGTGATAT | 0.189
CTTTCACC | 0.0258
AGACCCGG | -0.328

A few entries again (study 3):
Oligonucleotide | bound/input enrichment [ratio]
AUUUGCUGUCUUUAGAGGCCACGGCUUCAUUUCUAUGCGUAAAAAGCUCAUUUAGCAAUGUAGUUAUUUCAGUAUUUAUUUCUAUUAUGGAAUCCCUGGGGUUCGGAAUGUAACUUUGUA | 3.37
UUGGGUGUUCCAGCUCCAGGACAUUGUGCUCAGGAGUUUGAAAAAGGCUGCUAUACUCAGUCGGGUUACUGGGUUUCUUGUUCCUCUUUGUGCCUGCCUGCCUUGCCCAAGCUCACUCUG | 0.191
AAUGAAGCCUAUUUUGAUGUUGUUGAAGAAAUAGACGCAAUUAUAGAUAAAUCAGGAUCUACAGUCUUUGCAGAAAUUCAGGGGGUCAUUGAUGCUUGCAUUAAACUAUCUGGAAUGCCU | 0.472
UCAUUGCCCUCAACAUGAAGACUGCCAUAUUCCAAGUCACAUUAUUUUACCAAUGGAAUUAUAGAAUUAACAGUAUUUUAAAUUACGUUUAUAACACUGCAGAGACCUUAAGUGCUAAAC | 1.47
GAUGACAUGUCUGAGCCUGAAUUCAAAAGAGGAGGGACAAGGGCAACCGCGGGGCCCCGAUUAGGUUGGUCUCGAGACUUGGGACAGUCUAACAGUGACUUGGAUAUGCCAUUUGCCAAG | 0.165
GCUCCCACUGCAGCCUCGAGUGCCCCUGUCCCACCUGGCUCCCCCUGCUGGUGUCUAGUGUUUUUUUCCCUCUCCUGUCCUUGUGUUGAAGGCAGUAAACUAAGGGUGUCAAGCCCCAUU | 1.45
GAUGAGUUGCUCCUGAUUGGUCAUUGGGUUUGGGUGAGGCCUGGAGGCUUCAGAGGUGAAUUUAUGCUUGGGAAGCCUGAUCCCAAACCUGAAGGGAAGGGACUUGGAUCUCCUUAUAUU | 0.313
GCUGAAGGAAAUGACCAACCACCAGAAGAAACGAGCAGCUGAAAUGAUGGCAUCAUUAUUAAAAGACCUUGCAGAAAUAGGAAUUGCUGUGGGGAAUAACGAUGUGAAGCAACCAGAAGG | 0.268
